Published values collected from several papers.
Target: Mitogen-activated protein kinase kinase kinase kinase 1 (MAP4K1, Homo sapiens, UniProt Q92918)

CS(=O)(=O)Nc1cccc(-c2csc3cnc(Nc4ccc(N5CCN(CCCCCOc6cccc7c6C(=O)N(C6CCC(=O)NC6=O)C7=O)CC5)cc4)nc23)c1 (stereo not shown)  inhibition (probe labelling, inhibitor, KiNativ chemoproteomics; MOLT-4; 1 µM): 61.6%
NC(=O)[C@@H](O)C[C@H]1CCc2sc3ncnc(O[C@H]4CC[C@H](N5CCOCC5)CC4)c3c21  inhibition (enzyme activity, inhibitor; 10 µM): 17%
Cc1ccc(-c2c(/C=C(\C#N)C(=O)NC(C)C)n(CCCO)c3ncnc(N)c23)cc1  remaining binding (cell-free assay, competition with immobilised ligand; 1 µM): 90%
CCn1cc(C(=O)O)c(=O)c2c(N)c(F)c(NC3CCCCC3)cc21  inhibition (kinase activity; 0.1 µM, added: ATP at Km): -0.6%
C=CC(=O)N1Cc2nc(-c3cc(-c4cc(Cl)cnc4Cl)c(F)cc3F)n(-c3ccncn3)c2C1  inhibition (cell-free assay, inhibitor; 1 µM): 8.2%
CCN1CCN(Cc2ccc(NC(=O)c3ccc(C)c(NC(=O)c4cncc(-c5cccs5)c4)c3)cc2C(F)(F)F)CC1  remaining binding (binding, competition with immobilised ligand; 1 µM): 7.6%
COc1cc(Nc2nc(C)cc(-c3cnn4nc(OC)ccc34)n2)cc(C(F)(F)F)c1  remaining activity (inhibitor; 1 µM, HPK1; baseline: control): 86%
Cc1cnc2nc1Nc1cccc(c1)COC/C=C/COCc1cc(ccc1OCCN1CCOCC1)N2  remaining binding (binding, competition with immobilised ligand; 0.1 µM): 100%
CNC(=O)C1CCN(c2cc(C)c(F)cc2NC(=O)c2ccc(-c3cc(O)ccc3C)c(C)c2)CC1  remaining binding (binding, competition with immobilised ligand; 1 µM): 100%
COc1cc(-n2cc3cc(F)cc(C(N)=O)c3n2)cc(Cl)c1C1CC(O)(CCO)Cc2ccccc21 (stereo not shown)  inhibition (enzyme activity, inhibitor; 10 µM): 6.69%
COc1ccc(O)cc1-c1c[nH]c2ncc(-c3cncc(C(=O)N(C)C)c3)cc12  inhibition (binding, competition with immobilised ligand; 0.2 µM): 43.2%
CN1CC[C@@H](COc2cnc(C#N)cc2-c2ccn3nc(NC(=O)C4CC4)cc3c2)C1  inhibition (enzyme activity, inhibitor; 1 µM): -9%
CN1CCN(Cc2ccc(-c3ccc(CO[C@H]4CCC[C@@H]4NC(=O)c4cc(-c5cnn(C)c5)cnc4N)cc3)cc2)CC1  inhibition (enzyme activity, inhibitor; 0.1 µM): 13%
